Measured values from different studies.
Every numbered part comes from another study and shows a few of its results, in no order.
Sequence of UniProt Q96RR4 (whole entry, looked up): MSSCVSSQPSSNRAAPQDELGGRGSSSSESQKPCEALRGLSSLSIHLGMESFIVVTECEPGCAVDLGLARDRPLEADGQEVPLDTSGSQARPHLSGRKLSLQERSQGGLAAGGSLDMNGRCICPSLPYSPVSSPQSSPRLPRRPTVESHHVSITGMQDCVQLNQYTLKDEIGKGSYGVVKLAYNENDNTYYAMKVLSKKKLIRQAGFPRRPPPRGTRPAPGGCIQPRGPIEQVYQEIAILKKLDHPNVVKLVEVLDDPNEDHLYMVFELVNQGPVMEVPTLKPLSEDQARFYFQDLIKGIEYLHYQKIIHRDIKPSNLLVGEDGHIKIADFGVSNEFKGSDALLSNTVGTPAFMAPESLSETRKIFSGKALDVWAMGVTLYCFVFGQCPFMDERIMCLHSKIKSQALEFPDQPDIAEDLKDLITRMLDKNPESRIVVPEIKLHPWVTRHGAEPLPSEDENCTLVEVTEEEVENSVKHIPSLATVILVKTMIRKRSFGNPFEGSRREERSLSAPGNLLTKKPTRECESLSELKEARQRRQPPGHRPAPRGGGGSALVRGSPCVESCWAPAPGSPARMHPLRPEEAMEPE
Sequence of UniProt P35626 (whole entry, looked up): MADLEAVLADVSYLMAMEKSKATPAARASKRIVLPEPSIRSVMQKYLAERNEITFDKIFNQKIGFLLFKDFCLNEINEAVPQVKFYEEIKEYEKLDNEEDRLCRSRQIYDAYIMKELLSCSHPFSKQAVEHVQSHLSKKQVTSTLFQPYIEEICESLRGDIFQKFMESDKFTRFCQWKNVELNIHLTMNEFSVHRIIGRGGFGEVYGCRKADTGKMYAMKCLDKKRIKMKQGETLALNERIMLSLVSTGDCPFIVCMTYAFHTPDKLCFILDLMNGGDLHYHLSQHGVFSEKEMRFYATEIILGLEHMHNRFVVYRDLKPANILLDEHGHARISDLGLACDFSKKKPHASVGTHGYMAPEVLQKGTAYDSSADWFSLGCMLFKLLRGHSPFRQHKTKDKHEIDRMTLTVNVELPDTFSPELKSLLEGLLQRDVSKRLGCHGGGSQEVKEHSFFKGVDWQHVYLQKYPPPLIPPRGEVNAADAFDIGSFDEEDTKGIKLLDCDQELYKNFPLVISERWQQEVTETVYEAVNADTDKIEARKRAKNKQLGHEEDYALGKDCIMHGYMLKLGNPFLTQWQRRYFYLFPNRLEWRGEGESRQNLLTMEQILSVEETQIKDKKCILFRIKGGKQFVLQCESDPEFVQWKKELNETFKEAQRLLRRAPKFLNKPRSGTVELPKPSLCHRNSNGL
Sequence of UniProt Q9UKE5 (whole entry, looked up): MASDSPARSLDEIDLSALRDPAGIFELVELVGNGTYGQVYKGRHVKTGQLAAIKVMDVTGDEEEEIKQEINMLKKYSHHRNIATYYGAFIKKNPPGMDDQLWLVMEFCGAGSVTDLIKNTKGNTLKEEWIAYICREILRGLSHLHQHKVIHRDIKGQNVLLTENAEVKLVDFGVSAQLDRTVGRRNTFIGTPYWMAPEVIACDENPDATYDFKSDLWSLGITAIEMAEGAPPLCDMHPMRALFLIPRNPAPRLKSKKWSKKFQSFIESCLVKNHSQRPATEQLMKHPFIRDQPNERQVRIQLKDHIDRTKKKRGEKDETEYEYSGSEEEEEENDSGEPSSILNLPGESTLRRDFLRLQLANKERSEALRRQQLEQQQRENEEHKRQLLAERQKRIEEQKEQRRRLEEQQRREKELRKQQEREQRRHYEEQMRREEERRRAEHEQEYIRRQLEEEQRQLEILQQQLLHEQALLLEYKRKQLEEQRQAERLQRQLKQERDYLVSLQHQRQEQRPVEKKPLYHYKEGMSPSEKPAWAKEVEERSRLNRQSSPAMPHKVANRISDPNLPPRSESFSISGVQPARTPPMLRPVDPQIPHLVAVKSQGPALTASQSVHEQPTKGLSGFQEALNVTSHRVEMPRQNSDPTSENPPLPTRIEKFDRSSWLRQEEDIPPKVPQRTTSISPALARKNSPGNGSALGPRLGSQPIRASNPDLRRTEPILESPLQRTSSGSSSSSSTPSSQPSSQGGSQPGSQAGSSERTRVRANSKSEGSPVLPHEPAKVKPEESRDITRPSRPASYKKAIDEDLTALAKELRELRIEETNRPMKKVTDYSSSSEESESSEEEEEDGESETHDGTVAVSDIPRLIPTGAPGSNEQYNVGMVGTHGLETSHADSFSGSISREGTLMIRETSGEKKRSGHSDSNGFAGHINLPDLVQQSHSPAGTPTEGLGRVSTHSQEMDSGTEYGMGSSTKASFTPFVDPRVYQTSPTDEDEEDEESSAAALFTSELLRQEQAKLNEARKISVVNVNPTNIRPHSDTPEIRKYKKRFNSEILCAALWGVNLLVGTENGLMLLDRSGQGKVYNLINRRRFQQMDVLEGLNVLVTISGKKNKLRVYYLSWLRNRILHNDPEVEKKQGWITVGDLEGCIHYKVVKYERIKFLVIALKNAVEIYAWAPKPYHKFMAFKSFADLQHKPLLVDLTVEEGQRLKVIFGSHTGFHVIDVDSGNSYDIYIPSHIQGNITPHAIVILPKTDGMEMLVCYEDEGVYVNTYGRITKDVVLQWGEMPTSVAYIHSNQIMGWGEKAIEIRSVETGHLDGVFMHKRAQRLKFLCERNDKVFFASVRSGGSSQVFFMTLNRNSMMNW
Sequence of UniProt O76039 (whole entry, looked up): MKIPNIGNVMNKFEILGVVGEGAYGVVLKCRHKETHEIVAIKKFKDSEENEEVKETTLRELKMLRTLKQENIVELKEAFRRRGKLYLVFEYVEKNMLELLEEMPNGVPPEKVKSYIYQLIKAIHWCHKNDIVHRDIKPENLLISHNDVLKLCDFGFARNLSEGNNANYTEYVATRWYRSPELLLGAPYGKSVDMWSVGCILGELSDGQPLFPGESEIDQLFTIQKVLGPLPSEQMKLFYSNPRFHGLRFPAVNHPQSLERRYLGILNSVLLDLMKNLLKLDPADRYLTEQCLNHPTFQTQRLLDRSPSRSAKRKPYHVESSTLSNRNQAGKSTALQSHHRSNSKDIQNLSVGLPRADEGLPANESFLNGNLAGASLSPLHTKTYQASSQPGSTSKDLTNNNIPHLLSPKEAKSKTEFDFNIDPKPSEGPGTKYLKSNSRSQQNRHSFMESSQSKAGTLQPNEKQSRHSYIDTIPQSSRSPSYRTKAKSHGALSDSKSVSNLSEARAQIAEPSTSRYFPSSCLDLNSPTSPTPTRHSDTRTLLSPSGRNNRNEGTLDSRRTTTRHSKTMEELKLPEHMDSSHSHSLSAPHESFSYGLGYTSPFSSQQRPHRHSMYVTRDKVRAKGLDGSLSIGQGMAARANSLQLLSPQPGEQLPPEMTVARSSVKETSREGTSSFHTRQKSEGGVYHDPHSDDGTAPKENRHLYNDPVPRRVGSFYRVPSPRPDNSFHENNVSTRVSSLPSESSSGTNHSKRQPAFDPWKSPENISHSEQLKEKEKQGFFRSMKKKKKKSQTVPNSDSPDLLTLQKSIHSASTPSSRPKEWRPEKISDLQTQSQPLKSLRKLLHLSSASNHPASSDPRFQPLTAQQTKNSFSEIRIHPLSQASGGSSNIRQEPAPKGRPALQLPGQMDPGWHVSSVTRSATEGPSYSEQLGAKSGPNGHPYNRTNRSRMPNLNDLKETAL
Sequence of UniProt P11802 (whole entry, looked up): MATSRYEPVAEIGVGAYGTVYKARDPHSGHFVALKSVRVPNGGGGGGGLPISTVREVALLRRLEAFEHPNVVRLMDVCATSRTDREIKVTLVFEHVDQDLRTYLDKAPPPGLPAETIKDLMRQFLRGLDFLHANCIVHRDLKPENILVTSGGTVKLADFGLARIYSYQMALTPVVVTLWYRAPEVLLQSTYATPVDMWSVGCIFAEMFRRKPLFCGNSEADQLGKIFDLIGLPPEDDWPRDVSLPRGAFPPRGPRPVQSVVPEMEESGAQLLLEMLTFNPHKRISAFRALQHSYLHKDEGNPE
Sequence of UniProt O96017 (whole entry, looked up): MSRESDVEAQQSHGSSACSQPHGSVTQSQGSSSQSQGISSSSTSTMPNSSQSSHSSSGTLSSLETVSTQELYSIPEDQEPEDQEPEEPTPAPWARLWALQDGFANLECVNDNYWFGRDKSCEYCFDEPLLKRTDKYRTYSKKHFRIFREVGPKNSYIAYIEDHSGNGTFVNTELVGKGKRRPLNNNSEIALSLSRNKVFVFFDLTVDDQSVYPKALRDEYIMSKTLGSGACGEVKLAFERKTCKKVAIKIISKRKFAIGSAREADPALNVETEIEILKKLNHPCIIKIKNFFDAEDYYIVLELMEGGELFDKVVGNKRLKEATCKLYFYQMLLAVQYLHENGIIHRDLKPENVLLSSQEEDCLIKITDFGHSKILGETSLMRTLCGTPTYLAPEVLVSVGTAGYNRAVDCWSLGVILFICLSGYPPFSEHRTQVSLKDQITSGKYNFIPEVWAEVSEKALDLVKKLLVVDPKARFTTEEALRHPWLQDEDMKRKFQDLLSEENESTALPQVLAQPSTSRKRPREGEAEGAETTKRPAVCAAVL
Sequence of UniProt P36897 (whole entry, looked up): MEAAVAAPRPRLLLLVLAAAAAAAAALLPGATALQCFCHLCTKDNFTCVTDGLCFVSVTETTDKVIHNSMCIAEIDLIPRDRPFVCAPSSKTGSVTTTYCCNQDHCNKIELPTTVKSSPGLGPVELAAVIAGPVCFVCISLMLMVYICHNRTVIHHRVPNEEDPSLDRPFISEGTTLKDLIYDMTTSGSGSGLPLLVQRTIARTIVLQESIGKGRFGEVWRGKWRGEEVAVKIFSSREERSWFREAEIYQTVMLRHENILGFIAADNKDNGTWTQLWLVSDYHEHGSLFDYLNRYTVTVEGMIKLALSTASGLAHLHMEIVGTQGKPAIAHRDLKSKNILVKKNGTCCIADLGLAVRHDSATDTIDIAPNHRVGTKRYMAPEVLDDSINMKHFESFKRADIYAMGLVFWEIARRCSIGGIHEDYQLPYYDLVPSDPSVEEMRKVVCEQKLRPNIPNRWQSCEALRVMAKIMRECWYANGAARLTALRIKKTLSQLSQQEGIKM

Study 1
SMILES: COc1ccc2c(O[C@@H]3C[C@H]4C(=O)N[C@]5(C(=O)O)CC5/C=C\CCCCC[C@H](NC(=O)OC5CCCC5)C(=O)N4C3)cc(-c3csc(NC(=O)C(C)C)n3)nc2c1C (some centres unmarked)
Observed: cell-free assay
Technique: competition with immobilised ligand
Concentration: 1 µM
| target | remaining binding [%] |
| --- | --- |
| MYLK (Homo sapiens, UniProt Q15746) | 78 |
| DDR1 (Homo sapiens, UniProt Q08345) | 100 |
| NEK10 (Homo sapiens, UniProt Q6ZWH5) | 79 |
| EGFR (Homo sapiens, UniProt P00533, G719S) | 76 |
| ROCK1 (Homo sapiens, UniProt Q13464) | 98 |
| PIKFYVE (Homo sapiens, UniProt Q9Y2I7) | 100 |
| KIT (Homo sapiens, UniProt P10721, A829P) | 100 |
| SNRK (Homo sapiens, UniProt Q9NRH2) | 80 |
| FGFR4 (Homo sapiens, UniProt P22455) | 100 |
| MAP2K7 (Homo sapiens, UniProt O14733) | 81 |
| CDKL5 (Homo sapiens, UniProt O76039) | 77 |
| AAK1 (Homo sapiens, UniProt Q2M2I8) | 100 |
| TNIK (Homo sapiens, UniProt Q9UKE5) | 96 |
| Ribosomal protein S6 kinase alpha-4, C-terminal kinase domain (RPS6KA4, Homo sapiens, UniProt O75676) | 72 |
| SBK3 (Homo sapiens, UniProt P0C264) | 99 |

Study 2
Cell line: mouse MPNST tumor cells
Technique: high-content nuclear imaging
Item: cell number
Concentration: 10 µM
Time: 12 h
Notes: mean of 2 replicates
Relative to: plate mean
Reading: higher = more cells
| SMILES | nuclei count [z-score] |
| --- | --- |
| COc1cccc2c(NCc3ccccc3)nc(-n3c(N)nc4ccccc43)nc12 | -5.35 |
| CCOC(=O)C1=C(N)Oc2cc(O)ccc2C1c1cccnc1 (centres unmarked) | 2.65 |
| O/N=C/c1ccc(-c2ccc(O)c(F)c2)c(Cl)c1O | 5.9 |
| C#CCN(C)CC1=Cc2ccccc2Oc2ccccc21 | -0.552 |
| COc1ccc(Nc2ncnc3ccc(OC)cc23)cc1 | 1.49 |

Study 3
SMILES: CCOc1nc(NC(=O)Cc2cc(OC)ccc2OC)cc(N)c1C#N
Observed: enzyme activity
Action: inhibitor
Concentration: 0.5 µM
Relative to: control
| target | remaining activity |
| --- | --- |
| IKBKE (Homo sapiens, UniProt Q14164) | 83.7% |
| PRKCA (Homo sapiens, UniProt P17252) | 99.9% |
| TGFBR1 (Homo sapiens, UniProt P36897) | 97.8% |
| DAPK2 (Homo sapiens, UniProt Q9UIK4) | 104% |
| Tyrosine-protein kinase Lyn, isoform B (LYN, Homo sapiens, UniProt P07948) | 93.3% |
| TGFBR2 (Homo sapiens, UniProt P37173) | 104% |
| CAMKK2 (Homo sapiens, UniProt Q96RR4) | 85% |
| OXSR1 (Homo sapiens, UniProt O95747) | 104% |
| MAP3K3 (Homo sapiens, UniProt Q99759) | 97.1% |
| STK10 (Homo sapiens, UniProt O94804) | 97.7% |
| Cyclin-dependent kinase 5, with p25 (CDK5, Homo sapiens, UniProt Q00535) | 96.8% |
| cGMP-dependent protein kinase 1, isoform beta (PRKG1, Homo sapiens, UniProt Q13976) | 96.5% |
| GRK3 (Homo sapiens, UniProt P35626) | 106% |
| CAMK2D (Homo sapiens, UniProt Q13557) | 97.4% |
| Cyclin-dependent kinase 4, with cyclin D1 (CDK4, Homo sapiens, UniProt P11802) | 97.6% |
| STK39 (Homo sapiens, UniProt Q9UEW8) | 92.7% |
| Protein kinase C beta type, isoform beta-I (PRKCB, Homo sapiens, UniProt P05771) | 97.5% |
| IKBKB (Homo sapiens, UniProt O14920) | 102% |
| PRKACA (Homo sapiens, UniProt P17612) | 104% |
| MAPK9 (Homo sapiens, UniProt P45984) | 6.45% |
| NEK2 (Homo sapiens, UniProt P51955) | 87.7% |
| DAPK1 (Homo sapiens, UniProt P53355) | 99% |
| CHEK2 (Homo sapiens, UniProt O96017) | 102% |

Study 4
Cell line: HaCaT
Concentration: 100 µM
Time: 36 h
| Compound | viability [%] |
| --- | --- |
| CCCC(=O)Nc1ccc(OCC(O)CNC(C)C)c(C(C)=O)c1 (centres unmarked) | 87.6 |
| COc1cc(NS(=O)(=O)c2ccc(N)cc2)nc(OC)n1 | 66 |
| CN(C)CCOC(=O)COc1ccc(Cl)cc1 | 98 |
| CC(C)(Oc1ccc(CCNC(=O)c2ccc(Cl)cc2)cc1)C(=O)O | 86.3 |
| CC(=O)NO | 93.2 |
| CC(C)=CCC[C@](C)(O[C@@H]1O[C@H](CO[C@@H]2O[C@@H](CO)[C@H](O)[C@H]2O)[C@@H](O)[C@H](O)[C@H]1O)[C@H]1CC[C@]2(C)[C@@H]1[C@H](O)C[C@@H]1[C@@]3(C)CC[C@H](O[C@@H]4O[C@H](CO)[C@@H](O)[C@H](O)[C@H]4O[C@@H]4O[C@H](CO)[C@@H](O)[C@H](O)[C@H]4O)C(C)(C)[C@@H]3CC[C@]12C | 89.8 |

Single results of other studies
| SMILES | species | dose | notes | endpoint | result |
| --- | --- | --- | --- | --- | --- |
| CC(C)n1cnc(-c2ccc(F)cc2)c1-c1ncc(C(=O)Nc2ccc(N3CCN(C)CC3)cc2)[nH]1 | human, idiopathic pulmonary fibrosis | 60 mg once daily | trial, treatment-emergent | patients with Proteinuria | 0% |

A few entries again (study 3):
| target | remaining activity |
| --- | --- |
| IKBKB (Homo sapiens, UniProt O14920) | 102% |
| TGFBR2 (Homo sapiens, UniProt P37173) | 104% |
| NEK2 (Homo sapiens, UniProt P51955) | 87.7% |
| OXSR1 (Homo sapiens, UniProt O95747) | 104% |
